Experimental data of several laboratories.
± gives the spread as reported.

The elimination half-life of `CC(=O)N[C@@H](Cc1ccccc1)C(=O)N[C@H]1CCCNC(=O)[C@H](CCCNC(=N)N)NC(=O)[C@H](Cc2c[nH]c3ccccc23)NC(=O)[C@@H](CC2CCCCC2)NC(=O)[C@@H]2CCCN2C1=O` is reported as 0.37 h (C57BL/6J mice, spinal cord; subcutaneous, 1 mg/kg).
`COc1cccc2c1C(=O)c1c(O)c3c(c(O)c1C2=O)C[C@@](O)(C(=O)CO)C[C@@H]3O[C@H]1C[C@H](N)[C@H](O)[C@H](C)O1` has a Tmax of 0.0833 h (mouse, E0771 tumour-bearing, plasma; intravenous, 92 µmol/kg).
`CNCc1ccc(-c2[nH]c3cc(F)cc4c3c2CCNC4=O)cc1` gave an AUC(0-24 h) of 1920 ng·h/mL (human cancer patients, plasma; intravenous, 18 mg/m2, day 1, together with: temozolomide 200).
For `[H]/N=C(/N)N[C@H]1[C@H](O)[C@@H](O)[C@H](O[C@@H]2O[C@@H](C)[C@](O)(C=O)[C@H]2O[C@@H]2O[C@@H](CO)[C@H](O)[C@@H](O)[C@@H]2NC)[C@@H](N/C(N)=N\[H])[C@@H]1O`, the EC20 was 418 µM (mitochondrial swelling; BALB/cByJ female mouse liver mitochondria; 30 min, together with: succinate + rotenone; relative to: CaCl2 maximal swelling).
`CNC(=O)c1cc(Oc2ccc(NC(=O)Nc3ccc(Cl)c(C(F)(F)F)c3)c(F)c2)ccn1` gave an AUC(0-24h) change of -4.1% (human; oral, dose not given, together with: esomeprazole 3 h before; relative to: without esomeprazole).
`O=C([O-])CN1CCN(CC(=O)[O-])CCN(CC(=O)[O-])C(Cc2ccc([N+](=O)[O-])cc2)CN(CC(=O)[O-])CC1.[67Ga+3]` (stereo not drawn) — result for “intact radiolabelled complex”: 95.9 ± 0.1% (RP-TLC; murine plasma; 24 h, 37 °C, 5% CO2).
For `NC12CC3CC(CC(C3)C1)C2`, the EC20 was over 400 µM (cytochrome c release, ELISA; BALB/cByJ female mouse liver mitochondria; 30 min; relative to: alamethicin maximal release).
With `C#C[C@]1(CO)O[C@@H](n2cnc3c(N)nc(F)nc32)C[C@@H]1O` the AUC(0-t) was 3.91 µM·h (human, plasma; oral, 30 mg, single dose, fed).
The absorption half-life of `C[C@](C#N)(COc1cc(C#N)ccc1C(F)(F)F)NC(=O)c1ccc(SC(F)(F)F)cc1` is reported as 1.74 ± 0.66 h (parasitized calves, plasma; oral, 2.5 mg/kg).
`C[C@H]1C[C@@H]2[C@H]([C@@H](O)C[C@@]3(C)[C@H]2CC[C@]3(O)C(=O)CO)[C@@]2(C)C=CC(=O)C=C12` — result for “free to total exposure ratio”: about 8% (human, plasma; oral, 32 mg daily, days 1 and 4; relative to: free over total).
`COC(=O)c1ccccc1-c1c2ccc(=O)cc-2oc2c1ccc1cccc(N(C)C)c12` has an absorption maximum of 530 nm (aqueous NaOH 10% DMSO; pH 12.1, conjugate base).
`Cc1ccc(NC(=O)c2ccc(CN3CCN(C)CC3)cc2)cc1Nc1nccc(-c2cncc(-c3oncc3C)c2)n1` gave an AUC(0-tau) of 45700 ng·h/mL (Parkinson's disease patients, plasma; oral, 100 mg once daily, day 7, 7-day dosing, mean).
`CCc1oc2ccc(O)cc2c1C(=O)c1cc(Br)c(O)c(Br)c1` gave a microsomal CLint of 43.7 µL/min/mg (metabolic stability; Sprague-Dawley rat, liver microsomes; 1 µM, pH 7.4).
The tissue uptake of `CCCC[C@@H]1NC(=O)[C@@H](NC(=O)[C@H](CCC(=O)O)NC(=O)CNC(=O)CN2CCN(CC(=O)O)CCN(CC(=O)O)CCN(CC(=O)O)CC2)CCCCNC(=O)C[C@@H](C(N)=O)NC(=O)[C@H](C(C)C)NC(=O)[C@@H]2CCCN2C(=O)[C@H](CCCNC(=N)N)NC(=O)CNC(=O)[C@H](Cc2c[nH]c3ccccc23)NC(=O)[C@H](CCCNC(=N)N)NC(=O)[C@@H](Cc2ccccc2)NC(=O)[C@H](Cc2c[nH]cn2)NC(=O)[C@H](CCC(=O)O)NC1=O` [indium-111 labelled] is reported as 0.02 ± 0.01 %ID/g (C57 mice, B16/F10 lung metastatic melanoma, bone; intravenous, 0.037 MBq, 2 h).
`S=C(NCCCc1c[nH]cn1)NCCCN(Cc1ccc(Cl)c(Cl)c1)c1ccc(Br)cn1` has a concentration of 1680 ng/mL (male C57BL/6 mouse, plasma; intraperitoneal, 30 mg/kg, 4.98 min).
The C0 of `CC(C)C[C@H](NC(=O)CNC(=O)c1cc(Cl)ccc1Cl)B(O)O` is reported as 106 ng/mL (human, plasma; intravenous bolus, 0.5 mg/m^2, day 1).
`Cn1c(-c2ccc(C(N)=O)cc2F)nnc1C(C)(C)Oc1c(F)cc(Cl)cc1F` has an AUC(0-tau) mean of 7920 ng·h/mL (healthy young Japanese subjects, plasma; oral, 50 mg once daily, day 18, 14 days dosing).
`O=C(O)c1cccc(CN2CN(C3CCCCC3)C3(CCN(CCCC(=O)c4ccccc4)CC3)C2=O)c1` has a rearing counts of 3 counts (Sprague Dawley rat female; 100 mg/kg/day, 4 to 8 min of assessment).
`CCOC(=O)CN[C@@H](C(=O)N1CC[C@H]1C(=O)NCc1ccc(/C(N)=N\O)cc1)C1CCCCC1` has an EC20 of over 800 µM (cytochrome c release, ELISA; BALB/cByJ female mouse liver mitochondria; 30 min; relative to: alamethicin maximal release).
The alpha half-life of `NCCCC[C@@H]1NC(=O)[C@@H](Cc2c[nH]c3ccccc23)NC(=O)[C@H](c2ccccc2)NC(=O)[C@@H]2C[C@@H](OC(=O)NCCN)CN2C(=O)[C@H](Cc2ccccc2)NC(=O)[C@H](Cc2ccc(OCc3ccccc3)cc2)NC1=O` is reported as 2.4 ± 0.7 h (radioimmunoassay; healthy human male volunteers, plasma; subcutaneous, 300 µg).
`O=C(c1cccnc1-c1ccncc1)N1CCC(O)(Cc2ccccc2)CC1` has an AUCinf of 2840 ng·h/mL (healthy human, plasma; oral, 300 mg once daily, day 14, arithmetic mean).
`Nc1cc(-c2ccccc2)ccc1Cn1cncc1CNc1ccc(Cl)c(-c2ccccc2)c1` has an AUC(0-5 h) of 6700 ng·h/mL (female BALB/c mice, plasma; oral, 50 mg/kg single dose).
For `CCCCCCCCCCCCCCN(C)C`, “in vivo intrinsic clearance” read 140 mL/h/g liver (liver S9 substrate depletion; rainbow trout liver S9; six-surfactant mixture).
`CN[C@H]1CN(c2ccc3c(=O)c(C(=O)O)cn(-c4nccs4)c3n2)C[C@@H]1OC`: “mean residence time” 32.2 h (human patients, plasma; intravenous, 18 to 90 mg/m^2 weekly, day 1, cycle 1, mean, noncompartmental).
`COc1cc2ncnc(Nc3ccc(F)c(Cl)c3)c2cc1NC(=O)/C=C/CN1CCCCC1` has an IC50 of 30.5 µM (poziotinib M1 formation, inhibitor; human liver microsomes; 50 min, pH 7.4, together with: poziotinib 100 µM).
`C[C@]12CC[C@@H]3c4ccc(O)cc4CC[C@H]3[C@@H]1C[C@@H](O)[C@@H]2O` — result for “minimum serum concentration”: 0 ng/mL (GC-MS; breast cancer women on NSAI, serum; vaginal, 0.03 mg daily, 4 h, day 28).
The tissue/plasma ratio of `COc1cc2ncnc(Nc3ccc(F)c(Cl)c3)c2cc1OCCCN1CCOCC1` is reported as 0.9 (ICR mice, male, brain over plasma; intravenous, 5 mg/kg, cassette dosing; relative to: AUC brain over AUC plasma).
`COc1cc2c(c(N3CCN(C)CC3)c1)O[C@@H](C(=O)Nc1ccc(N3CCOCC3)cc1)CC2` — result for “brain concentration ratio”: about 2 fold (brain stem or hippocampus; dose-normalized; relative to: rat over dog).
The Tmax of `Cc1nc2cccc(OCC(C)(C)C(=O)NC(C)C)c2c(N)c1C(=O)O` is reported as 4.5 h (Sprague-Dawley rat both sexes, plasma; dietary, 60 mg/kg/day, day 90).
The EC20 of `Oc1cc(O)cc(O)c1` is reported as over 400 µM (cytochrome c release, ELISA; BALB/cByJ female mouse liver mitochondria; 30 min; relative to: alamethicin maximal release).
Under “apparent clearance (CL/F)”, `C=CC(N)CCC(=O)O` (stereo not drawn) is recorded as 9.52 ± 0.433 mL/min/kg (male Sprague-Dawley rat, plasma; oral, 1.0 mg/kg, formulation 4, together with: proline and tryptophan 100 mg/kg each).
`CCCC[C@H](NC(C)=O)C(=O)N[C@H]1CCC(=O)NC[C@@H](C(=O)N[C@@H](Cc2c[nH]c3ccccc23)C(N)=O)NC(=O)[C@H](CCCNC(=N)N)NC(=O)[C@@H](Cc2ccccc2)NC(=O)[C@H](Cc2c[nH]cn2)NC1=O` gave a Cmax of 275 ng/mL (beagle dog, male, plasma; subcutaneous, 8.0 mg/kg daily, day 28).
For `CNc1cc(-c2csc(N(C)C(=O)c3ccc(F)cc3)n2)ncn1` [carbon-11 labelled], the logD was 3.27 ± 0.03 (1-octanol/sodium phosphate buffer; pH 7.4, corrected for radioligand instability).
`CN1CCN(c2ccc(Nc3ncc4cc(C#N)c(=O)n(C5CCCC5)c4n3)cc2)CC1` has a tissue/plasma ratio of 3.1 (NIH Swiss nude mice, intracerebral U87 tumour, normal brain; intravenous, 25 mg/kg, together with: gefitinib 200 mg/kg oral 1 h before; relative to: AUC brain over AUC plasma).
`COc1ccc2[nH]c([S+]([O-])Cc3ncc(C)c(OC)c3C)nc2c1` (stereo not drawn) has an AUC(0-6 h) of 81.9 ng·h/mL (human, dried blood spots; dose not given, prasugrel alone session).
For `O=C(Cc1cccc(OC(F)(F)F)c1)Nc1ccc(CCCCc2nnc(NC(=O)Cc3ccccn3)s2)nn1`, the AUC(0-8h) was 7600 ng·h/mL (human patients, plasma; oral, 150 mg three times daily fasted, cycle 1 day 15 steady state).
